Measured values from different studies.
Compare with care: the assays were run in different laboratories. Numbers after ± are the reported error.
Genome polyprotein 3C protease: Genome polyprotein, 3C protease (rhinovirus B14, UniProt P03303)
Beta-glucuronidase: Beta-glucuronidase (Streptococcus agalactiae serotype V, UniProt Q8E0N2)
Accessory gene regulator protein C: Accessory gene regulator protein C (Staphylococcus aureus, UniProt Q309Z2)

CCC1c2ccsc2CCN1C(=O)Cn1nnc2ccccc21 (stereo not drawn) — IC50 (Genome polyprotein 3C protease; 3C protease activity, SAMDI-MS; human rhinovirus): > 100 µM
CO[C@H]1O[C@H](CO)[C@@H](O)[C@H](O)[C@@H]1O — IC50 (Concanavalin-A (Canavalia ensiformis, UniProt P02866)): 144 ± 7 µM
CC(C)=CCc1c(O)ccc(C(=O)C2C(c3c(O)cc(O)c4c(=O)c(CC=C(C)C)c(-c5ccc(O)cc5O)oc34)C=C(C)CC2c2ccc(O)cc2O)c1O (stereo not drawn) — IC50 (mRNA cap guanine-N(7) methyltransferase, with RAM (RNMT, Homo sapiens, UniProt O43148); N7-methyltransferase activity, inhibitor, Py-FLINT; RNMT-RAM complex, with: SAM 20 µM): 31.9 ± 0.32 µM
CN(C)c1nc2sc3c(N4CCNCC4)nnnc3c2c2c1CCCC2 — IC50 (Beta-glucuronidase; Streptococcus agalactiae): 0.7 ± 0.09 µM
CC[C@H](C)[C@H](N)C(=O)N[C@@H](CO)C(=O)N[C@@H](CCC(N)=O)C(=O)N[C@H](C(=O)N[C@@H](CC(N)=O)C(=O)N[C@@H](CCC(=O)O)C(=O)N[C@@H](CCCCN)C(=O)N[C@H](C(=O)N[C@@H](CC(N)=O)C(=O)N[C@@H](CCC(N)=O)C(=O)N[C@@H](CO)C(=O)N[C@@H](CC(C)C)C(=O)N[C@@H](C)C(=O)N[C@@H](Cc1ccccc1)C(=O)N[C@H](C(=O)N[C@@H](CCCNC(=N)N)C(=O)N[C@@H](CCCCN)C(=O)N[C@@H](CO)C(=O)N[C@@H](CC(=O)O)C(=O)N[C@@H](CCC(=O)O)C(=O)N(CCOC)CC(=O)N(CCOC)CC(=O)N(CCOC)CC(=O)N(CCOC)CC(=O)N(CCOC)CC(=O)N(CCOC)CC(=O)N(CCOC)CC(=O)N(CCOC)CC(=O)N(CCOC)CC(=O)N(CCOC)CC(N)=O)[C@@H](C)CC)[C@@H](C)CC)C(C)C — IC50 (hRSV fusion protein 5-helix bundle; binding, fluorescence polarization; with: Fl-C35 tracer 5 nM): > 200 µM
Cc1cc(S(=O)(=O)Nc2ncccn2)c(F)cc1N(C)C1CCN([C@H](C)c2ccccc2)CC1 — IC50 (SCN9A (Homo sapiens, UniProt Q15858); sodium current, inhibitor, automated patch clamp; inactivated state, Vh -60 mV): 27.7 µM
O=C(Nc1ccccc1)c1ccccc1O — IC50 (HDAC7 (Homo sapiens, UniProt Q8WUI4); enzyme activity, inhibitor, fluorescence): > 10 µM
CO[C@@H]1C[C@@H](C(=O)N[C@H](C)CCC(N)=O)N(C(=O)[C@H](CC(C)C)NC(=O)/C=C(\C)c2ccc(OP(=O)(O)O)cc2)C1 — IC50 (STAT3 (Homo sapiens, UniProt P40763); phosphopeptide binding, inhibitor, fluorescence polarization): 0.317 ± 0.014 µM
CCCC[C@H]1C(=O)N(C)[C@@H](CCCC)C(=O)N[C@@H](CCCNC(=O)CN2CCN(CC(=O)O)CCN(CC(=O)O)CCN(CC(=O)O)CC2)C(=O)N[C@H](C(=O)NCC(N)=O)CSCC(=O)N[C@@H](Cc2ccc(O)cc2)C(=O)N(C)[C@@H](C)C(=O)N[C@@H](CC(N)=O)C(=O)N2CCC[C@H]2C(=O)N[C@@H](Cc2c[nH]cn2)C(=O)N[C@@H](CC(C)C)C(=O)N(C)CC(=O)N[C@@H](Cc2c[nH]c3ccccc23)C(=O)N[C@@H](CO)C(=O)N[C@@H](Cc2c[nH]c3ccccc23)C(=O)N1C — IC50 (CD274 (Homo sapiens, UniProt Q9NZQ7); ligand displacement, radioligand): 0.0125 µM
COC(=O)C[C@H](NC(=O)[C@H](C)NC(=O)[C@@H](NC(=O)[C@H](CC(=O)OC)NC(=O)[C@@H](NC(=O)c1ccc2ccccc2n1)C(C)C)C(C)C)C(=O)COc1c(F)cccc1F — IC50 (Caspase-3 (CASP3, Homo sapiens, UniProt P42574); enzyme activity, inhibitor): 0.0473 µM
COC(=O)[C@@H]1CCCN1C(=O)[C@@H](O)[C@H](N)CC(C)C — IC50 (Xaa-Pro dipeptidase (Homo sapiens, UniProt P12955); enzyme activity, inhibitor): 0.675 µM
CC(=O)N[C@@H](CC(C)C)C(=O)N[C@@H](CCC(=O)O)C(=O)N[C@@H](CO)C(=O)N[C@@H](CC(=O)O)C(=O)CCl — IC50 (Caspase-4 (Casp4, Mus musculus, UniProt P70343); enzyme activity, inhibitor, fluorescence): 70.4 µM
N=C(N)NCCC[C@H](NC(=O)[C@@H]1CCCN1C(=O)[C@H](N)Cc1ccccc1)C(=O)CCl — IC50 (Cathepsin B (CTSB, Homo sapiens, UniProt P07858); enzyme activity, inhibitor, fluorescence): 0.402 µM
COc1ccc(CC[C@H]2OC(=O)[C@@H]3CCCCN3C(=O)C(=O)C(C)(C)COC(=O)/C=C/CCN(C)C(=O)[C@H](CC(C)C)N(C)C(=O)[C@H]3CCCN3C(=O)[C@H](Cc3ccccc3)N(C)C(=O)[C@@H](c3ccccc3)NC(=O)CCC(=O)Nc3cccc2c3)cc1OC — IC50 (FKBP1A/SLC29A1 (Homo sapiens, UniProt P62942+Q99808); thymidine uptake, inhibitor; PK-15 expressing hENT1; 30 min, with: [3H]-thymidine): 0.589 µM
Nc1ccccc1C(=O)OCN1C(=O)c2ccccc2S1(=O)=O — IC50 (Chymotrypsinogen A (Bos taurus, UniProt P00766); enzyme activity, inhibitor; 25 °C, 30 min preincubation, with: Suc-AAPF-pNA): 54 µM
Nc1ncnc2c1ncn2[C@@H]1O[C@H](CSCCNC(=O)NCCc2ccccc2)[C@@H](O)[C@H]1O — IC50 (PRMT5 (Homo sapiens, UniProt O14744); enzyme activity, inhibitor, radiometric): 13 µM
CSCC[C@H](NC(=O)[C@H](C)NC(=O)[C@H](CCCNC(=N)N)NC(=O)[C@H](Cc1ccc(O)cc1)NC(=O)[C@H](Cc1c[nH]c2ccccc12)NC(=O)[C@H](Cc1ccccc1)NC(=O)[C@H](CO)NC(=O)CNC(=O)CNC(=O)[C@H](CC(=O)O)NC(=O)[C@@H](N)CCC(=O)O)C(=O)N[C@@H](CCCCN)C(=O)N[C@@H](C)C(=O)N[C@@H](CC(C)C)C(=O)N[C@@H](Cc1ccc(O)cc1)C(=O)NCC(N)=O — IC50 (CIB1 (Homo sapiens, UniProt Q99828); peptide binding, inhibitor, TR-FRET competition): 0.016 µM
CNC(C)CCc1ccccc1Cl (racemic) — IC50 (ADRB2 (Homo sapiens, UniProt P07550); β-arrestin recruitment, antagonist): > 10 µM
C1CCc2c(c(N3CCNCC3)nc3sc4c(N5CCNCC5)nnnc4c23)C1 — IC50 (Beta-glucuronidase; Streptococcus agalactiae): 0.3 ± 0.03 µM
CC[C@H](C)[C@H](NC(=O)[C@@H](N)CC(=O)O)C(=O)N[C@H]1CSC(=O)[C@H](Cc2ccccc2)NC(=O)[C@H](Cc2ccc(O)cc2)NC(=O)[C@H](C)NC(=O)[C@H](CC(N)=O)NC1=O — IC50 (Accessory gene regulator protein C): > 1 µM
COc1ccc2nc(C)cc(OCC(=O)Nc3cc(C)cc(C)c3)c2c1 — IC50 (Cytochrome P450 3A4 (CYP3A4, Homo sapiens, UniProt P08684); enzyme activity, inhibitor; with: VR substrate): 16 µM
S=C(NCc1ccccn1)NCc1ccccn1 — IC50 (AMY2 (Sus scrofa, UniProt P00690); enzyme activity, inhibitor): 523 µM
CC[C@H](C)[C@@H]1NC(=O)[C@H](Cc2ccccc2)NC(=O)[C@H](CC(=O)O)NC(=O)[C@@H](NC(C)=O)CSC(=O)[C@H](CCSC)NC1=O — IC50 (Accessory gene regulator protein C): > 1 µM
O=C(NCCCCn1ccc2ccccc21)Oc1ccccc1 — IC50 (Faah (Rattus norvegicus, UniProt P97612); rat brain homogenate; 60 min, 37 °C): 0.53 µM
O=C(/C=C/c1ccc(Cl)cc1)c1ccc(N2CCNCC2)cc1 — IC50 (Beta-secretase 1 (BACE1, Homo sapiens, UniProt P56817); enzyme activity, inhibitor, fluorescence; with preincubation): 9.76 µM
CSCC[C@@H](C=O)NC(=O)[C@H](CC(C)C)NC(=O)[C@H](CC(C)C)NC(C)=O — IC50 (Genome polyprotein 3C protease; enzyme activity, inhibitor, SAMDI-MS; human rhinovirus; 30 min preincubation, with: substrate 10 µM): 2.37 µM
CC(C)[C@H](NC(=O)c1ccc(CCc2nc3c(c(=O)[nH]2)CCC3)cc1)C(=O)NC1COC1 — IC50 (MMP14 (Homo sapiens, UniProt P50281); enzyme activity, inhibitor): > 5 µM
O=c1ccc2cc(O[C@@H]3O[C@H](CO)[C@@H](O)[C@H](O)[C@H]3O)c(O)cc2o1 — IC50 (CA9 (Homo sapiens, UniProt Q16790); enzyme activity, inhibitor): 0.327 µM
CC[N+](C)(CC)CCC[n+]1c(-c2ccccc2)c2cc(N)ccc2c2ccc(N)cc21 — IC50 (RNMT (Homo sapiens, UniProt O43148); enzyme activity, inhibitor): 5.5 µM
CC(=O)SC[C@@H](C)C(=O)Nc1ccccc1-c1nn[nH]n1 — IC50 (VIM-2 (Escherichia coli, UniProt Q5U7L7); enzyme activity, inhibitor, fluorescence; with preincubation): 0.63 µM
CC(C)[C@@H]1NC(=O)[C@H](CCC(N)=O)NC(=O)[C@@H](Cc2ccc(O)cc2)NC(=O)CSC[C@@H](C(N)=O)NC(=O)[C@H](CC(=O)O)NC(=O)[C@H](CCC(=O)O)NC(=O)[C@H](Cc2c[nH]c3ccccc23)NC(=O)[C@@H]2CCCN2C(=O)[C@H](CO)N(C)C(=O)[C@H](C)NC(=O)[C@H](Cc2c[nH]c3ccccc23)NC(=O)[C@H](Cc2c[nH]c3ccccc23)NC(=O)[C@H](C(C)C)NC(=O)[C@H]([C@@H](C)O)NC1=O — IC50 (2,3-bisphosphoglycerate-independent phosphoglycerate mutase (gpmI, Staphylococcus aureus, UniProt Q6GIL5); enzyme activity, inhibitor): 0.045 µM
CN[C@H](CC(C)C)C(=O)N[C@H]1C(=O)N[C@@H](CC(N)=O)C(=O)N[C@H]2C(=O)N[C@H]3C(=O)N[C@H](C(=O)N[C@H](C(=O)O)c4cc(O)cc(O)c4-c4cc3ccc4O)[C@H](O)c3ccc(c(Cl)c3)Oc3cc2cc(c3O[C@@H]2O[C@H](CO)[C@@H](O)[C@H](O)[C@H]2O[C@H]2C[C@](C)(NCc3ccc(C(=O)OCCCCCCN(Cc4ccccn4)Cc4ccccn4)cc3)[C@H](O)[C@H](C)O2)Oc2ccc(cc2Cl)[C@H]1O — IC50 (VIM-1 (Pseudomonas aeruginosa, UniProt A0A0F7KYQ8); enzyme activity, inhibitor, absorbance): 4 µM
O=C(NCCN1CCC2(CC1)C(=O)NCN2C(=O)C1CCC1)c1ccc2ccccc2c1 — IC50 (Phospholipase D2 (Homo sapiens, UniProt O14939); enzyme activity, inhibitor): 0.32 µM
CCCC[C@H](NC(=O)[C@H](CC(C)C)NC(=O)[C@H](Cc1c[nH]cn1)NC(=O)CNC(=O)[C@@H](NC(=O)[C@H](C)NC(=O)[C@H](Cc1c[nH]c2ccccc12)NC(=O)[C@H](CCC(N)=O)NC(=O)[C@H](CC(N)=O)NC(=O)CNC(=O)[C@H](Cc1ccc(O)cc1)NC(=O)[C@H](CCCNC(=N)N)NC(=O)[C@H](CCC(N)=O)NC(=O)[C@@H]1CCC(=O)N1)C(C)C)C(N)=O — IC50 (GRPR (Homo sapiens, UniProt P30550); ligand displacement in cells, radioligand): 0.0004 µM
C[C@]1(COC(=O)c2ccc(O)c(O)c2)[C@H](C(=O)O)N2C(=O)/C(=C/c3ccccn3)[C@H]2S1(=O)=O — IC50 (OXA-23 (Acinetobacter baumannii, UniProt Q9L4P2); inhibitor; with: nitrocefin): 0.051 ± 0.012 µM
CC(C)C[C@H](NC(=O)[C@H](CC(N)=O)NC(=O)[C@H](CCCNC(=N)N)NC(=O)[C@@H](N)CS)C(=O)O — IC50 (PPO3 (Agaricus bisporus, UniProt C7FF04); enzyme activity, inhibitor): 39.6 µM
C=C1C(=O)N[C@@H](C)C(=O)N(C)[C@@H](C)C(=O)N[C@@H]([C@H](OC(=O)[C@@H](NC(=O)CC)[C@H](O)C(C)C)C(C)C)C(=O)N(C)[C@@H]([C@@H](C)OC)C(=O)O[C@H](C(C)C)[C@H](NC(C)=O)C(=O)O[C@H](Cc2ccccc2)C(=O)N1C — IC50 (Guanine nucleotide binding protein q polypeptide (Cricetulus griseus, UniProt Q3HR10); inositol phosphate, antagonist, TR-FRET): 0.0324 µM
O=NSCC(O)C(O)CSN=O (racemic) — IC50 (Sh (Drosophila melanogaster, UniProt P08510, C301S/C308S/del6-46/T449V); potassium current, inhibitor, whole-cell patch clamp; HEK cells; internal TEA competition): ~200 µM
CN(Cc1ccccc1)CP(=O)(O)O — IC50 (Urease subunit alpha (Sporosarcina pasteurii, UniProt P41020); enzyme activity, inhibitor, indophenol colorimetric; 20 min, pH 7.0, 37 °C, with: 50 mM urea): 300 ± 6.5 µM

Some of these lines once more:
C1CCc2c(c(N3CCNCC3)nc3sc4c(N5CCNCC5)nnnc4c23)C1 — IC50 (Beta-glucuronidase; Streptococcus agalactiae): 0.3 ± 0.03 µM
CN(C)c1nc2sc3c(N4CCNCC4)nnnc3c2c2c1CCCC2 — IC50 (Beta-glucuronidase; Streptococcus agalactiae): 0.7 ± 0.09 µM
O=C(NCCCCn1ccc2ccccc21)Oc1ccccc1 — IC50 (Faah (Rattus norvegicus, UniProt P97612); rat brain homogenate; 60 min, 37 °C): 0.53 µM
C[C@]1(COC(=O)c2ccc(O)c(O)c2)[C@H](C(=O)O)N2C(=O)/C(=C/c3ccccn3)[C@H]2S1(=O)=O — IC50 (OXA-23 (Acinetobacter baumannii, UniProt Q9L4P2); inhibitor; with: nitrocefin): 0.051 ± 0.012 µM
